Assay results collected from several papers.
Each line is one published result; not all experiments were run side by side. “And” joins repeats or separate records; there may be more than shown.

With `CCOc1cncc(-c2ccc(NC(=O)C3(c4ccnc(NS(=O)(=O)C5CC5)n4)CCOCC3)nc2)n1` the IC50 was 64 nM (colon cancer; cell viability, CellTiter-Glo; DMSO 0.1%; 72 h, line code 1103).
Under “log2 fold change”, `Cn1ncc2cc(-c3cncc(Cl)c3N3CCC4(CCNC4=O)CC3)ccc21` is recorded as -2.89 (LS174T; gene expression, microarray, refers to: PTGS2 mRNA; concentration not given, 24 h; relative to: untreated cells).
With `CN(C)c1ccc(CNCCC2CCOC(C)(C)C2)cc1.Cl` (stereo not shown) the translation activity was 122% and 109% (Trypanosoma cruzi; reporter mRNA translation, inhibitor, refers to: Renilla luciferase mRNA; cell-free extract; concentration not given, test 1; relative to: positive over negative control).
With `CCN(CC)CC(=O)Nc1cccc(-n2cc(-c3ccc4ccc(-c5cn(-c6cccc(NC(=O)CN(CC)CC)c6)nn5)cc4c3)nn2)c1` the fold regulation was -1.03 fold (RCC4; PCR array, refers to: VEGFC; 5 x IC50, 2 h, normoxia; relative to: untreated).
For `CNS(=O)(=O)Nc1nccc(Cc2c(C)c3ccc(Oc4ncccc4F)cc3oc2=O)c1F`, the IC50 was 22.8 nM (MOLP-8; cell viability; 7 days).
For `CO[C@@H]1[C@@H](OC(N)=O)[C@@H](O)[C@H](Oc2ccc3c(O)c(NC(=O)c4ccc(O)c(CC=C(C)C)c4)c(=O)oc3c2C)OC1(C)C`, the colony survival was 40.6% (DLD-1 BRCA2-/-; 50 µM, replicate B; relative to: untreated).
`CN1CCCNC(=O)c2cccc(c2)C(=O)NCCCN(C)CCCNc2cccc3c2C(=O)c2cccc(c2C3=O)NCCC1`: “log2 fold change” -0.643 (SAS; RNA-Seq, refers to: ZNF281 mRNA; 1 µM, 6 h; relative to: untreated cells).
With `COc1ccc(CCN(C)CCCC(C#N)(c2ccc(OC)c(OC)c2)C(C)C)cc1OC` (stereo not shown) the translation activity was 86.4% (Trypanosoma cruzi; reporter mRNA translation, inhibitor, refers to: Renilla luciferase mRNA; cell-free extract; concentration not given, test 3; relative to: positive over negative control).
For `Cc1ncsc1-c1ccc(C(C)NC(=O)C2CC(O)CN2C(=O)C(NC(=O)CCCCCCCCCCN2CCCC(Nc3ncc(Cl)c(Nc4ccccc4S(=O)(=O)C(C)C)n3)C2)C(C)(C)C)cc1` (stereo not shown), “log2 fold change” read -2 (22Rv1; RNA-seq, refers to: ZNF396 mRNA; concentration not given; relative to: DMSO).
`CC(C)c1ccc(N(C)c2ccc3c(c2)OCC[C@H]3CNc2cnccc2C(=O)O)cc1` has an IC50 of ≥ 10000 nM (KYSE-70; cell viability, CellTiter-Glo; 7 days).

Repeated from above:
With `COc1ccc(CCN(C)CCCC(C#N)(c2ccc(OC)c(OC)c2)C(C)C)cc1OC` (stereo not shown) the translation activity was 86.4% (Trypanosoma cruzi; reporter mRNA translation, inhibitor, refers to: Renilla luciferase mRNA; cell-free extract; concentration not given, test 3; relative to: positive over negative control).
